Published values collected from several papers.
Compare with care: the assays were run in different laboratories. Several values in a cell are separate wells, animals, samples, runs or records. ± gives the spread as reported.

Structure (SMILES)	organism	test	system	setting	scale	endpoint	result
O=C(NCC(O)(Cn1cncn1)c1ccc(F)cc1F)[c-]1cccc1.[Cl-].[Co+3].c1cc[cH-]c1 (racemic)	Trypanosoma cruzi	parasite growth, resazurin		24 h, trypomastigote		IC50	17.6 µM
O=C(c1cc([N+](=O)[O-])ccc1Cl)N1CCN(c2ccc(F)cc2)CC1	Saccharomyces cerevisiae	cell growth	wild type			IC50	> 200 µM
CC(c1c[nH]c2ccccc12)c1c[nH]c2ccccc12	Clostridium sporogenes	microbial growth, absorbance				IC50	> 50 µM
CCOC(=O)c1ccc(OCCC2CCN(c3ccc(C)nn3)CC2)cc1	Rhinovirus A	viral replication, high-content imaging	RV-A16			IC50	0.023 ± 0.022 µM
CCCOC(=O)N1c2cc(CNC)ccc2[C@H](NC(=O)C(=O)Nc2ccc(Cl)c(F)c2)[C@H]1CNC(=N)N	HIV-1	viral infection	TZM-bl, CRF02_AG 235-47 Env pseudovirus			IC50	0.596 µM
CN(C)c1nc(-c2ccccc2)nc2[nH]nc(Nc3ccc(F)cc3)c12	rhinovirus B5	viral cytopathic effect	HeLa			IC50	10.1 µM
O=C(c1ccc(Br)cc1)N1CCN(c2ccc(F)cc2)CC1	Saccharomyces cerevisiae	cell growth	wild type			IC50	6.2 ± 2.1 µM
CCc1ccc(-c2nc(N)c3c(Nc4ccccc4)n[nH]c3n2)cc1	rhinovirus B5	viral cytopathic effect	HeLa			IC50	0.57 µM
CC(=O)N(Cc1cccnc1)c1cccc(-c2nc3ccccc3s2)c1	Trypanosoma cruzi	reporter mRNA translation, inhibitor, measured: capped polyadenylated Renilla luciferase mRNA	cell-free extract	concentration not given	baseline: positive over negative control	translation activity	109% and 95.2% and 98.3% and 107%
O=C(c1ccccc1I)N1CCN(c2ccc(F)cc2)CC1	Saccharomyces cerevisiae	microbial growth				IC50	> 20 µM
c1ccc2c(Cc3c(-c4c[nH]c5ccccc45)[nH]c4ccccc34)c[nH]c2c1	Clostridium sporogenes	microbial growth, absorbance				IC50	> 50 µM
Nc1nc(-c2ccccc2)nc2[nH]nc(Nc3ccc(F)cc3)c12	rhinovirus B5	viral cytopathic effect	HeLa			IC50	0.04 µM
O=Cc1c[nH]c2ccccc12	Clostridium sporogenes	microbial growth, absorbance				IC50	> 50 µM
Nc1nc(-c2cccc(C(F)(F)F)c2)nc2[nH]nc(Nc3ccccc3)c12	rhinovirus B5	viral cytopathic effect	HeLa			IC50	4.05 µM
O=C(N1CCc2ccccc21)n1ccnn1	Phelipanche ramosa	seed germination, antagonist		with: 2-PEITC 100 nM		IC50	5.3 µM
O=C(c1ccc(I)cc1)N1CCN(c2ccc(F)cc2)CC1	Saccharomyces cerevisiae	cell growth	wild type			IC50	3.75 ± 1.6 µM

Structure (SMILES)	organism	test	system	setting	scale	endpoint	result
CCC1(CC)CC(=O)N(C2c3cc(C(=O)NC4c5ccccc5CC4O)ccc3OC2(C)COC)C(=N)N1 (stereo not shown)	Plasmodium falciparum	merozoite egress	PEXEL-Nluc line			IC50	~0.0017 µM
COc1ccc(N2CCN(C(=O)c3ccc(Cl)c([N+](=O)[O-])c3)CC2)cc1	Saccharomyces cerevisiae	cell growth	wild type			IC50	4.03 ± 1.9 µM
Nc1nc(-c2ccc(Cl)cc2)nc2[nH]nc(Nc3ccc(F)cc3)c12	rhinovirus B5	viral cytopathic effect	HeLa			IC50	0.52 µM
CNCc1ccc2c(c1)N(C(=O)OCc1c(F)c(F)c(F)c(F)c1F)[C@H](CNC(=N)N)[C@H]2NC(=O)C(=O)Nc1ccc(Cl)c(F)c1	Human immunodeficiency virus 1	viral infection, Env pseudovirus	TZM-bl, C2101.c01 CRF01_AE			IC50	17.3 µM
CS(=O)(=O)c1ccc(Nc2n[nH]c3nc(-c4ccccc4)nc(N)c23)cc1	rhinovirus B5	viral cytopathic effect	HeLa			IC50	0.55 µM
c1ccc2c([C+](c3c[nH]c4ccccc34)c3c[nH]c4ccccc34)c[nH]c2c1	Clostridium sporogenes	microbial growth, absorbance				IC50	> 50 µM
Cc1nc(N)c2c(Nc3ccc(F)cc3)n[nH]c2n1	rhinovirus B5	viral cytopathic effect	HeLa			IC50	79.2 µM
COC1C=COC2(C)Oc3c(C)c(O)c4c(c3C2=O)C2=NC3(CCN(CC(C)C)CC3)NC2=C(NC(=O)C(C)=CC=CC(C)C(O)C(C)C(O)C(C)C(OC(=O)Nc2cnccn2)C1C)C4=O (stereo not shown)	Mycobacteroides abscessus	bacterial growth	subsp. abscessus clinical isolate	slow grower		IC50	0.015 µM
O=C(c1ccc(Cl)c([N+](=O)[O-])c1)N1CCN(c2ccc(F)cc2)CC1	Saccharomyces cerevisiae	cell growth	wild type			IC50	3.53 ± 1.1 µM
O=C(NN(c1ccccc1)c1ccccc1)c1ccc([N+](=O)[O-])o1	Trypanosoma cruzi	reporter mRNA translation, inhibitor, measured: Renilla luciferase mRNA	cell-free extract	concentration not given, test 2	baseline: positive over negative control	translation activity	104%
COc1ccccc1N1CCN(C(=O)c2ccc(Cl)c([N+](=O)[O-])c2)CC1	Saccharomyces cerevisiae	cell growth	wild type			IC50	> 200 µM
Oc1cccc2c1[nH]c1c(C3=CC4(O)CCC=CCCCCN5CCC3C3(CC6C=CCCCCN6C43)C5)nccc12 (single isomer, unassigned; (+))	Cryptococcus neoformans	microbial growth	ATCC90113			IC50	2.67 µg/mL
Cc1ccc(C(=O)N2CCN(c3ccc(F)cc3)CC2)cc1	Saccharomyces cerevisiae	cell growth	wild type			IC50	> 200 µM
Cc1ccc(Nc2n[nH]c3nc(-c4ccc(F)cc4)nc(N)c23)cc1	rhinovirus B5	viral cytopathic effect	HeLa			IC50	1.83 µM
CCCCC(CC)COC(=O)CC(C(=O)OCC(CC)CCCC)S(=O)(=O)O.COC(=O)Nc1nc2cc(C(=O)c3ccccc3)ccc2[nH]1 (stereo not shown)	Cryptococcus neoformans	EUCAST broth microdilution	clinical isolate	72 h, 37 °C, RPMI with 2% glucose		IC50	0.312 µM

Excerpt of the above:
Structure (SMILES)	organism	test	system	setting	scale	endpoint	result
O=C(NCC(O)(Cn1cncn1)c1ccc(F)cc1F)[c-]1cccc1.[Cl-].[Co+3].c1cc[cH-]c1 (racemic)	Trypanosoma cruzi	parasite growth, resazurin		24 h, trypomastigote		IC50	17.6 µM
O=C(c1cc([N+](=O)[O-])ccc1Cl)N1CCN(c2ccc(F)cc2)CC1	Saccharomyces cerevisiae	cell growth	wild type			IC50	> 200 µM
